Assay results pooled from the literature.
Each numbered part is a random draw from the data of one study; scales do not carry over between parts. Positions count from the first letter of the parent shown.

Series 1
Target: CCND1, cyclin fold, Cln2 fusion (human)
Technique: yeast growth competition, sequencing
Sample: yeast
Notes: strong parent motif
Baseline: not given
Direction: higher = stronger binding
Starting sequence: RBL2 docking peptide (human); STTRRRLFVENDS
| Variant | normalised enrichment score |
| --- | --- |
| STTRARAFVENDS [R5A L7A] | 0.0378 |
| STTRRRLFVCNDS [E10C] | 0.0243 |
| STTRRRLFVENDG [S13G] | 1.36 |
| STVRRRLFVENDS [T3V] | 1.46 |
| STTRRRLWVENDS [F8W] | 0.0686 |
| STTRRRLFVENSS [D12S] | 0.673 |
| STTTRRLFVENDS [R4T] | 0.661 |
| STTRRRLFVEDDS [N11D] | 2.23 |
| CTTRRRLFVENDS [S1C] | 0.88 |
| STTQRRLFVENDS [R4Q] | 0.594 |
| STTRRRTFVENDS [L7T] | -0.0554 |
| STTRRRLFVEYDS [N11Y] | 0.253 |

Series 2
Target: CREB3L1, bZIP domain (human)
Technique: DHFR protein complementation
Sample: yeast
Notes: single substitutions, most at no-binding floor
Baseline: wild-type JUN-FOS pair
Direction: higher = stronger binding
Starting sequence: JUN, bZIP domain (human); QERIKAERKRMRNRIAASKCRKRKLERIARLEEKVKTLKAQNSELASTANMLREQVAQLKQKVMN; partner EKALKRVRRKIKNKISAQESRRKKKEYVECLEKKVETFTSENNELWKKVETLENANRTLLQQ
| Variant | binding fitness [natural log] |
| --- | --- |
| E32P | -1.5 |
| E54D | -1.39 |
| E32G | -1.49 |
| L38H | -1.48 |
| E32Y | -1.48 |
| S47W | -1.43 |
| A40N | -1.45 |
| L38V | -1.33 |
| S47E | -1.08 |
| A40F | -1.53 |
| L52P | -1.45 |
| R53I | -1.46 |
| A57L | -1.4 |
| M51T | -1.42 |
| E44H | -1.24 |
| Q55S | -1.39 |
| A29L | -1.52 |
| M51G | -1.34 |

Series 3
Target: RNA binding protein fox-1 homolog 2, RRM domain, GST-SBP tag (RBFOX2, Homo sapiens, UniProt O43251-10, residues 100-194)
Technique: RNA Bind-n-Seq
Molecule type: RNA
Sample: in vitro
Concentration: 365 nM
Notes: natural RNA segment, single round, ends assumed
Baseline: no-protein control
Direction: higher = stronger binding
Construct (chain): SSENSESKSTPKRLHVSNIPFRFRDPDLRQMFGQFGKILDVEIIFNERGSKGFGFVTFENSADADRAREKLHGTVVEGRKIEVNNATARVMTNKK
| Oligonucleotide | RBNS enrichment (R) |
| --- | --- |
| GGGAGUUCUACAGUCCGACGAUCUCCCUUUCUGACUGCCCAAGGGGCUCAGAACCCCAGCAAUCCCUUCCUUUCACUACCUUCUUUUUUGGGGGUAGUUGGAAGGGACUGAAAUUGUGGGGGGAAGGUAGGAGUGGAAUUCUCGGGUGCCAA | 0.355 |
| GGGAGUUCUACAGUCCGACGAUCCGUGUGCGUGCGUGUUAGUGUGUGUGCAUGUGUGUGUCUGUCUUUGUGGGAGGGUAAGACAAUAUGAACAAACUAUGAUCACAGUGACUUUACAGGAGGUUGUGGAUGCUUGGAAUUCUCGGGUGCCAA | 1.58 |
| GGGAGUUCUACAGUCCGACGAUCCAUCAUGAGCUGAGGUGGGACCACAGUCCCCAGGCUGCAUCGGCCUGCCUGUGUUUCCCUCUUAGGUGCAUUUAUCUUUUUGAUUUUUCCGAGUGGCAUUUAAGUGCACAUGGAAUUCUCGGGUGCCAA | 0.894 |
| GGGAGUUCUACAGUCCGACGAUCUUGGGGGCCAUACCUGUUCCAGCUCUGUUCCCAGGGUGGGGCAGGGAGGUGGGGGUUGGGGGAGUAGUGGGGCACGGCUCCUAAGAUCCAGCCCCCAUACUGACAGACGGUGGAAUUCUCGGGUGCCAA | 0.304 |
| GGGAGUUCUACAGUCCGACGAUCCUCACCGGUUUGUACAUUAUCUGUUGUCCUUUACUACUGUAAACAGUAAAUAUAGUUUGGUAUUCUGUCUCUUGGCCUAUGUUAAACACUGUAUUUGGAGACGGGUCAUAUGGAAUUCUCGGGUGCCAA | 0.41 |
| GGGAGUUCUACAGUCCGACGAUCCAUUCAUUCAGAGGUUUGUUUUCUCUCAGUCCUUUUGCUACAUUCACUUUCUUUUCAAAGAAAUGUUAAUUAUUACAAAAAUUGACAUAGAUAUCUUUCCCAAACUUGGGUGGAAUUCUCGGGUGCCAA | 0.444 |
| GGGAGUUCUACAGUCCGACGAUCAAAAUGAAAAAAAAGUUUACAAAUUUAAGUUGACAAUGAAAUGUGAAGUUGGUCCUAGUUUACAUCUUAGAGGAAUGUAUAUGUAUGUUUUACAUGCCUAAAUAUCUGCAUGGAAUUCUCGGGUGCCAA | 13.8 |
| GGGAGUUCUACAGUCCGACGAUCAAAGGUAGUGGGGGCCGGUGUGGGGCAGAGUCCUGAAGAGCCACCUCUAGGAGGCAGCCCCUAGGAGCACGCACGUUCUGUCAGUAUUACCCCACCUGUCCUAUCAGGUGUGGAAUUCUCGGGUGCCAA | 1.43 |
| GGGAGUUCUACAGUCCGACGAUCCCCACCACAGGGCAGCUGCGUUUUAGGAAGAGCAAAUGAAACUCCACACCAUUCUUCUAGAUCUCUGGUGUUCUCUUUGGUUUCAUUUUUUUAAAAAAUUACCUUCUUUGUGGAAUUCUCGGGUGCCAA | 0.332 |
| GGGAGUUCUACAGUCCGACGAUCCUCAUUUUUCCCACAGUGGAGAUUUGGAAGAUGUCCCAAUUUAAUGUAGGUGUUUUCAUCUGUCAUGAAGGGACAGAUGAGAUCCUACUACUUGCGAAGUUUCUAUGCAUUGGAAUUCUCGGGUGCCAA | 0.569 |
| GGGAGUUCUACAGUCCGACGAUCGGCCAGCAGCUCCCAGUGUGACCUGACAAAAACACGUAGGGGCAGGGACGGUCCCCACCCCCAGGGACACAACCCCUGGUCUUGGACCAGUAGAGGACACGGAGGGUUCAUGGAAUUCUCGGGUGCCAA | 0.172 |
| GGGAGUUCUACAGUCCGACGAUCCAUUUAUACUGUCUGUUCUGUACAGUUCUCUCAGAUAAUGACAAUAGCUUGGGAUUUUUUUUUUUUUUAAUGUAGAAAAACCCUGUAGAACCAGUGCUUUGGCCACUUUCUGGAAUUCUCGGGUGCCAA | 1.11 |

Mixed results
| Substance | target | test | test system | conditions | how to read | endpoint | value |
| --- | --- | --- | --- | --- | --- | --- | --- |
| PhoQ, residues 284 288 289 292 302 303 TNASYF | PhoP, residues 12 14 15 18 19 NMSSL (Escherichia coli, UniProt P23836) | Sort-seq, item: YFP reporter | E. coli | PhoQ-PhoP variant library, together with: 10 µM Mg2+ | baseline: high Mg2+ state, higher = stronger signaling | fold induction | 0.103 |

Some of these lines once more (series 3):
| Oligonucleotide | RBNS enrichment (R) |
| --- | --- |
| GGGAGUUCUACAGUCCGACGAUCCAUUCAUUCAGAGGUUUGUUUUCUCUCAGUCCUUUUGCUACAUUCACUUUCUUUUCAAAGAAAUGUUAAUUAUUACAAAAAUUGACAUAGAUAUCUUUCCCAAACUUGGGUGGAAUUCUCGGGUGCCAA | 0.444 |
| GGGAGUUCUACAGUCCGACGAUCAAAAUGAAAAAAAAGUUUACAAAUUUAAGUUGACAAUGAAAUGUGAAGUUGGUCCUAGUUUACAUCUUAGAGGAAUGUAUAUGUAUGUUUUACAUGCCUAAAUAUCUGCAUGGAAUUCUCGGGUGCCAA | 13.8 |
| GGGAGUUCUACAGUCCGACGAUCCAUUUAUACUGUCUGUUCUGUACAGUUCUCUCAGAUAAUGACAAUAGCUUGGGAUUUUUUUUUUUUUUAAUGUAGAAAAACCCUGUAGAACCAGUGCUUUGGCCACUUUCUGGAAUUCUCGGGUGCCAA | 1.11 |
| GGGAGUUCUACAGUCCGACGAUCGGCCAGCAGCUCCCAGUGUGACCUGACAAAAACACGUAGGGGCAGGGACGGUCCCCACCCCCAGGGACACAACCCCUGGUCUUGGACCAGUAGAGGACACGGAGGGUUCAUGGAAUUCUCGGGUGCCAA | 0.172 |
| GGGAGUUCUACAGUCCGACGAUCUCCCUUUCUGACUGCCCAAGGGGCUCAGAACCCCAGCAAUCCCUUCCUUUCACUACCUUCUUUUUUGGGGGUAGUUGGAAGGGACUGAAAUUGUGGGGGGAAGGUAGGAGUGGAAUUCUCGGGUGCCAA | 0.355 |
| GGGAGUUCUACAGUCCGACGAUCCCCACCACAGGGCAGCUGCGUUUUAGGAAGAGCAAAUGAAACUCCACACCAUUCUUCUAGAUCUCUGGUGUUCUCUUUGGUUUCAUUUUUUUAAAAAAUUACCUUCUUUGUGGAAUUCUCGGGUGCCAA | 0.332 |
| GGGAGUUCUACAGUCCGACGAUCCUCACCGGUUUGUACAUUAUCUGUUGUCCUUUACUACUGUAAACAGUAAAUAUAGUUUGGUAUUCUGUCUCUUGGCCUAUGUUAAACACUGUAUUUGGAGACGGGUCAUAUGGAAUUCUCGGGUGCCAA | 0.41 |
